Assay results of several laboratories.
Compare with care: the assays were run in different laboratories. “And” joins repeats or separate records; there may be more than shown. Numbers after ± are the reported error.
Sequence of UniProt Q53GS9 (whole entry, looked up): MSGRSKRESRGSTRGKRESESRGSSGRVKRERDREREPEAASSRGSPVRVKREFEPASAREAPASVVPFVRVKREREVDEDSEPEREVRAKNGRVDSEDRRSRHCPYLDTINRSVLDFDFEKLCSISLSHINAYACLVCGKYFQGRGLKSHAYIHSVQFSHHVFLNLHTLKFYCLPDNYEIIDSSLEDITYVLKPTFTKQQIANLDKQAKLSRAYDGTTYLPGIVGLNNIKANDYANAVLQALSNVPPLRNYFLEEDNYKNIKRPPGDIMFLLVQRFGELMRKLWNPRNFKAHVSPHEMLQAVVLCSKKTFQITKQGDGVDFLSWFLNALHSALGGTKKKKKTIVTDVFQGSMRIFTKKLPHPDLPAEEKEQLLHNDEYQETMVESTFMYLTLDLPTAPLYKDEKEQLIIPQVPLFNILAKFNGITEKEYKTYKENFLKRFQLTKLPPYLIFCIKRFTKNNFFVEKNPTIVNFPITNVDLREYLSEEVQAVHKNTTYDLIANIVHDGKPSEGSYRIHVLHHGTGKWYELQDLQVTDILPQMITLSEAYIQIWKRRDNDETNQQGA
Sequence of UniProt Q70CQ1 (whole entry, looked up): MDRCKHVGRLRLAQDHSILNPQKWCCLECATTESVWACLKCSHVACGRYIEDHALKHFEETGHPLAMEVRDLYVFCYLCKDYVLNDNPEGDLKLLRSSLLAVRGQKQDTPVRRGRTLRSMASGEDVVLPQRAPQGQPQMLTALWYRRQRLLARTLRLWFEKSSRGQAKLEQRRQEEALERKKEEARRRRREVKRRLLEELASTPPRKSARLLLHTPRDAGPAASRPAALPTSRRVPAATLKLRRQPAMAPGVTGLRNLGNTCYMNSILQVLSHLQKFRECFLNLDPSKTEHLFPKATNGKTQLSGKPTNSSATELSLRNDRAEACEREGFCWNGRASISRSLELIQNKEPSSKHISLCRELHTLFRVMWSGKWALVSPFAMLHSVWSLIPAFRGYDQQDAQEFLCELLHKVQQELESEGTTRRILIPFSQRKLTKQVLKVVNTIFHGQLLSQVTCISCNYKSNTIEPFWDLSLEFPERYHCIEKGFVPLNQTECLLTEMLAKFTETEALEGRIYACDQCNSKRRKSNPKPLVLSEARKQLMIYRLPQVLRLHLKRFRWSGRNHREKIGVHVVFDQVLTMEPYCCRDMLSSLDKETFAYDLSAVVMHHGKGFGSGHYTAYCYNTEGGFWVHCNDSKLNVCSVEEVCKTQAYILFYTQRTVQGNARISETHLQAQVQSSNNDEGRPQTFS

Structure (SMILES)	target or system	assay	setting	scale	quantity	result
C[C@@H](c1ccc2nccn2c1)n1nnc2ncc(-c3cnn(C)c3)nc21	primary human hepatocytes	refers to: CYP3A4 mRNA	48 h, twofold induction concentration		F2	3.4 to 4.1 µM
CCOC(=O)C1=C(CN2CCC[C@@H]2C(=O)Nc2ccc(B(O)O)cc2)NC(c2nccs2)=N[C@H]1c1ccc(F)cc1Br	primary human hepatocytes	refers to: CYP3A4 mRNA	10 µM, sandwich culture	reference: rifampicin	CYP3A4 induction	8.78%
Cc1ccc(S(=O)(=O)Nn2c(N)c(-c3nc4ccccc4s3)c3[nH]nc(N)c3c2=O)cc1	HEp-2		72 h		maximum non-toxic concentration	90 µg/mL
Clc1cccc(COc2ccccc2CNCc2ccccc2)c1	A549				cytotoxic concentration	> 12.5 µM
COC[C@@H](CC(C)C)NC(=O)c1ccc(C)c(C)c1	primary human lymphocytes		280 µg/mL, 4 h		mitotic index	8.9
CC(C)C[C@@H](C=O)NC(=O)[C@H](CC(C)C)NC(=O)[C@H](CC(C)C)NC(=O)OCc1ccccc1	LMH chicken hepatoma cells				CC50	135 µM
Cc1ccc(-c2nc(NS(=O)(=O)c3ccc(C)cc3)nc(N)c2-c2nc3ccccc3s2)cc1	HEp-2	cytotoxicity	72 h		maximum non-toxic concentration	100 µg/mL
COC(=O)c1cc(C(C)=NNc2nc(-c3ccc4c(c3)OCCCO4)cs2)ccc1O	T47D	annexin V/PI flow cytometry	40 µM, 72 h		necrotic cells	0.97 ± 0.17%
Cc1c(C)c2c(c(C)c1O)CCC(C)(COc1ccc(CC3SC(=O)NC3=O)cc1)O2 (centres unmarked)	HepaRG	CellTiter-Glo	up to 100 µM, 24 h		cytotoxicity	< 15%
CCSc1c(-c2nc3ccccc3s2)c(N)n(NS(=O)(=O)c2ccc(C)cc2)c(=O)c1C#N	HEp-2		72 h		maximum non-toxic concentration	120 µg/mL
COc1cc(C2=CCCc3c2ccc(OC)c3OCc2ccc([N+](=O)[O-])s2)cc(OC)c1OC	A549		4 h anoxic	reference: oxic IC50 over anoxic IC50	hypoxic cytotoxicity ratio	0.76
Cc1nc(C)c(Cl)c(O)c1Cl	LMH chicken hepatoma cells				CC50	42.5 µM
Cc1cc(C)c(CNC(=O)c2cc(Cl)c3c(c2C)O[C@@](C)([C@H]2CC[C@H](N(C)C)CC2)O3)c(=O)[nH]1	Caco-2		20 µM, with: verapamil 100 µM		efflux ratio	1.09
NC(=O)c1ncn([C@@H]2O[C@H](CO)[C@@H](O)[C@H]2O)n1	BHK-D2-Rluc	MTT	48 (unit not given)		CC50	> 100 µM
COc1ccc2c(Cc3ccccc3F)c3[n+](cc2c1OC)CCc1cc2c(cc1-3)OCO2	NIH3T3	cytotoxicity, CCK-8	24 h		IC50	52.2 µM
Cc1ccc(S(=O)(=O)Nc2nc(N)c(-c3nc4ccccc4s3)c(-c3ccc(F)cc3)n2)cc1	HEp-2	cytotoxicity	72 h		maximum non-toxic concentration	100 µg/mL
Cc1noc(C)c1Cn1cc(N2C(=O)CN(Cc3cccc(O)c3)C2=O)cn1	human blood lymphocytes		1300 µg/mL, 3 h, with 5% S9		aberrant cells with gaps	6%
Cc1cc(C(=O)NC(C)(C)COc2cccc3c2C(N)=NS(=O)(=O)N3)cc(C)n1	human peripheral blood lymphocytes	CBPI, preliminary test	0.6 µg/mL, 24 h	reference: vehicle control	cytotoxicity	9%
O=C(O)CCC(=O)c1ccc2c(c1)CCC(=O)N2	Ubiquitin carboxyl-terminal hydrolase 39, ZnF-UBD domain (Homo sapiens, UniProt Q53GS9)				Kd	> 1000 µM
CC[C@]1(O)C[C@H]2CN(CCc3c([nH]c4ccccc34)[C@@](C(=O)OC)(c3cc4c(cc3OC)N(C=O)[C@H]3[C@@](O)(C(=O)OC)[C@H](OC(C)=O)[C@]5(CC)C=CCN6CC[C@]43[C@@H]65)C2)C1	CHP-212 resistant subline R2 (heterozygous USP7 V517F)	cell viability	370.37 nM		viability	12% and 15.4% and 12.7%
CO[C@@]12[C@H](COC(N)=O)C3=C(C(=O)C(C)=C(N)C3=O)N1C[C@@H]1N[C@@H]12	human peripheral blood lymphocytes	in vitro micronucleus test	0.20 µg/mL, 3 h exposure, -S9, 27 h harvest		cytostasis	33%

Structure (SMILES)	target or system	assay	setting	scale	quantity	result
NCC(O)CCC(N)C(=O)O (racemic)		binding, equilibrium dialysis LC-MS	5 µM, thermostabilized A2AR-BRIL construct	reference: no-protein control, direction not given	z-scored log2 fold change	0.268
CCOCc1nc2c(N)nc3ccccc3c2n1CC(C)(C)O	Ramos		up to 30 µM		cytotoxicity	not toxic
Nc1nc2c(ncn2[C@@H]2O[C@H](COP(=O)(O)OP(=O)(O)OP(=O)(O)O)[C@@H](O)[C@H]2O)c(=O)[nH]1		binding, equilibrium dialysis LC-MS	5 µM, thermostabilized A2AR-BRIL construct	reference: no-protein control, direction not given	z-scored log2 fold change	-5.34
CC[C@]1(O)C[C@@H]2CN(CCc3c([nH]c4ccccc34)[C@@](C(=O)OC)(c3cc4c(cc3OC)N(C)[C@H]3[C@@](O)(C(=O)OC)[C@H](OC(C)=O)[C@]5(CC)C=CCN6CC[C@]43[C@@H]65)C2)C1	human peripheral blood lymphocytes	CBPI, micronucleus test	10 ng/mL, 24 h, without S9	reference: vehicle	cytotoxicity	76%
O=C1c2ccccc2C(=O)c2c(NCCc3ccc(O)cc3)ccc(NCCc3ccc(O)cc3)c21	differentiated THP-1		72 h	reference: THP-1 CC50 over EC50	selectivity index	1
O=C(O)Cc1nc2ccccc2[nH]1	Ubiquitin carboxyl-terminal hydrolase 49, ZnF-UBD domain (USP49, Homo sapiens, UniProt Q70CQ1)				Kd	> 1000 µM
CCC(CC)COC(=O)[C@H](C)N[P@](=O)(OC[C@H]1O[C@@](C#N)(c2ccc3c(N)ncnn23)[C@H](O)[C@@H]1O)Oc1ccccc1	primary human hepatocytes	refers to: DNA	4 h		CC50	> 30 µM
C=CC(C)(C)c1[nH]cnc1/C=C1/NC(=O)[C@H](C(C)C)NC1=O	L-02	SRB			CC50	7.32 µM
COc1ccc2c(c1NC(=O)OCc1ccc([N+](=O)[O-])s1)CCC=C2c1cc(OC)c(OC)c(OC)c1	A549		4 h anoxic	reference: oxic IC50 over anoxic IC50	hypoxic cytotoxicity ratio	1.7
Nc1nc(NS(=O)(=O)c2ccccc2)nc(-c2ccc(F)cc2)c1-c1nc2ccccc2s1	HEp-2	cytotoxicity	72 h		maximum non-toxic concentration	110 µg/mL
COc1cc(C2=CCCc3c2ccc(OC)c3OCc2ccc([N+](=O)[O-])o2)cc(OC)c1OC	A549	SRB	4 h exposure	reference: oxic IC50 over anoxic IC50	hypoxic cytotoxicity ratio	1.2
C[C@]12CC[C@@H]3c4ccc(O)cc4C[C@@H](CCCCCCCCC[S+]([O-])CCCC(F)(F)C(F)(F)F)[C@H]3[C@@H]1CC[C@@H]2O (some centres unmarked)	T47D	CCK-8	20 nM	reference: untreated	viability	84.7% and 83.5% and 76.2%
CC(=O)[C@]1(O)Cc2c(O)c3c(c(O)c2[C@@H](O[C@H]2C[C@H](N)[C@H](O)[C@H](C)O2)C1)C(=O)c1ccccc1C3=O	differentiated THP-1		72 h	reference: THP-1 CC50 over EC50	selectivity index	3
COc1ccc(-c2nc(NS(=O)(=O)c3ccc(C)cc3)nc(N)c2-c2nc3ccccc3s2)cc1	HEp-2	cytotoxicity	72 h		maximum non-toxic concentration	90 µg/mL
Clc1ccc(COc2ccccc2CNCc2cccnc2)cc1	HEK293				cytotoxic concentration	> 12.5 µM
Cc1ccc(S(=O)(=O)Nc2ncc(-c3nc4ccccc4s3)c(N)n2)cc1	HEp-2	cytotoxicity	72 h		maximum non-toxic concentration	110 µg/mL
CCOC(=O)c1cc(C#N)c(=O)n(NS(=O)(=O)c2ccccc2)c1N	HEp-2		72 h		maximum non-toxic concentration	90 µg/mL
O=C(CNc1nc(NS(=O)(=O)c2ccccc2)ncc1-c1nc2ccccc2s1)c1ccc(Br)cc1	HEp-2	cytotoxicity	72 h		maximum non-toxic concentration	120 µg/mL
CSc1c(-c2nc3ccccc3s2)c(N)n(NS(=O)(=O)c2ccc(C)cc2)c(=O)c1C#N	HEp-2		72 h		maximum non-toxic concentration	110 µg/mL
c1csc(CNc2cc[nH]n2)c1	human peripheral blood lymphocytes		100 µg/mL, 20 h		numerical aberration cells	0%
